# Published values pooled from the literature.
# Protocols differ between the studies behind these lines. ± marks the error that the study gave. No end group written: not given here.
Molecule,assay,test system,setting,how to read,quantity,result
CC1(C)CCC(c2ccc(Cl)cc2)=C(CN2CCN(c3ccc(C(=O)NS(=O)(=O)c4ccc(N[C@H](CCN5CCOCC5)CSc5ccccc5)c(S(=O)(=O)C(F)(F)F)c4)cc3)CC2)C1,"cell kill, PI exclusion flow cytometry","normal CD21+ B lymphocytes, dog, lymph node",24 h,,EC50,0.43 ± 0.44 µM
Cc1c(C)c2c(c(C)c1OCc1ccccc1)CCC(C)(C(=O)NN=C1C(=O)Nc3ccc(F)cc31)O2 (stereo not shown),seizure protection,male CF-1 mice,"intraperitoneal, 0.5 h, together with: maximal electroshock",,minimal effective dose,300 mg/kg
CC(=O)c1sc(N=C2c3ccccc3-c3nc4cc(F)ccc4nc32)nc1C,,mice with STZ-induced diabetes,"oral, 25 mg/kg, 216 h, day 9",,blood glucose,252 ± 13.5 mg/dL
Cc1c(C)c2c(c(C)c1O)CCC(C)(C(=O)NN=C1C(=O)Nc3ccc(F)cc31)O2 (stereo not shown),seizure protection,male CF-1 mice,"intraperitoneal, 0.5 h, together with: maximal electroshock",,minimal effective dose,> 300 mg/kg
SIIVFEKL,"flow cytometry, measured: CD44hi CD8+ T cells","peptide, OT-I CD8+ T cells, mouse","dose not given, primed 5 days, restimulated 100 ng/mL OVA257, together with: no TGF-β1",,IL-2+ IFN-γ+ cells,3.93%
Cc1cc(Nc2cc(CN3CCOCC3)c3nc(C)c(Cc4ccc(Cl)cc4F)n3n2)n[nH]1,,"mouse, Ba/F3-JAK2 V617F tumour-bearing, peripheral blood","80 mg/kg twice daily, 8 days",,platelet count,1.04e+06 µL⁻¹
Cc1c(C)c2c(c(C)c1O)CCC(C)(C(=O)NN=C1C(=O)Nc3ccc(Cl)cc31)O2 (stereo not shown),seizure protection,male CF-1 mice,"intraperitoneal, 4 h, together with: maximal electroshock",,minimal effective dose,30 mg/kg
Cc1ccc(C(=O)NC2CC2)cc1-n1ncc(C(=O)c2cccc(C#N)c2)c1N,"LPS-induced TNFα secretion, inhibitor","healthy human, peripheral blood ex vivo","unbound, fraction unbound 0.15",,IC50,0.017 µM
NCCCC[C@@H]1NC(=O)[C@@H](Cc2c[nH]c3ccccc23)NC(=O)[C@H](c2ccccc2)NC(=O)[C@@H]2C[C@@H](OC(=O)NCCN)CN2C(=O)[C@H](Cc2ccccc2)NC(=O)[C@H](Cc2ccc(OCc3ccccc3)cc2)NC1=O,GHRH-stimulated GH secretion,healthy human volunteers,"subcutaneous, 300 µg, together with: GHRH 1 µg/kg",relative to: pre-dose baseline,GH AUC(0-2h) change,-86.7%
COc1c(C)c(C)c2c(c1C)CCC(C)(C(=O)NN=C1C(=O)Nc3cc(Cl)ccc31)O2 (stereo not shown),seizure protection,male CF-1 mice,"intraperitoneal, 0.5 h, together with: maximal electroshock",,minimal effective dose,100 mg/kg
COc1ccc2c(c1)c(CC(=O)O)c(C)n2C(=O)c1ccc(Cl)cc1,"multiplex bead immunoassay, measured: RANTES","CD-1 mice, serum","ip, 20 mg/kg, three-injection regimen, together with: LPS 3 mg/kg",,cytokine level,2.9 ± 1.8 pg/mL
Polymyxin B,,human whole blood,"50 ng/mL, 4 h, 37 °C, together with: E. coli LPS 0.5 ng/mL",relative to: LPS without compound,IL-1β release,31.1 ± 9.6%
C[n+]1cccc2c(N)cccc21,,diet-induced obese mice,"subcutaneous, 32 mg/kg/day, high-fat diet, once daily until termination",,body weight gain,0.9 g
Cc1cc(NS(=O)(=O)c2ccc(N=NN(C)O)cc2)no1,paw oedema,"rat, carrageenan oedema","oral, 100 mg/kg, 4 h after carrageenan",relative to: vehicle,inhibition,80.3%
NNC1=NC(=O)C(=C2c3ccccc3-c3nc4cc(F)ccc4nc32)S1,,mice with STZ-induced diabetes,"oral, 25 mg/kg, 216 h, day 9",,blood glucose,305 ± 16.4 mg/dL
Cy5-CVWSLQNTLFM (Cy5-labelled; sequence looked up),GUV inward budding,"peptide, POPC/cholesterol GUVs","30 µM, 30 min",,GUVs with ILVs,16.6%
Cc1cc2ccccc2c2cc3ccccc3cc12,adrenal haemorrhage prevention,rat,"oral, together with: 7,12-DMBA 5 mg i.v.",,minimal protective dose,0.5 mg
Cc1c(C)c2c(c(C)c1O)CCC(C)(C(=O)NN=C1C(=O)Nc3cc(Cl)ccc31)O2 (stereo not shown),seizure protection,male CF-1 mice,"intraperitoneal, 4 h, together with: maximal electroshock",,minimal effective dose,300 mg/kg
COc1cc(Nc2ncc3c(n2)-c2ccc(Cl)cc2C(c2c(F)cccc2OC)=NC3)ccc1C(=O)O,RECIST,human,"50 mg twice daily, 12 cycles",,tumour reduction,< 50%
CS/C(S)=N/CCCC[S+](C)[O-] (racemic),"RT-PCR, measured: Nqo1","rat, colon","oral gavage, 200 mg/kg, 96 h, dosed for four days",relative to: vehicle,mRNA fold change,2.23
COc1ccc(S(=O)(=O)N(Cc2cccnc2)[C@@H](C(=O)NO)C(C)C)cc1,,"rat, isolated perfused heart","dose not given, stunning, global no-flow ischaemia 20-25 min",,ventricular weight,87.9 ± 2.2 mg
Cc1ccc(-c2nn(-c3ccccc3)cc2C=NNC2=NC(=O)C(=C3c4ccccc4-c4nc5cc(F)ccc5nc43)S2)cc1,,mice with STZ-induced diabetes,"oral, 25 mg/kg, 144 h, day 6",,blood glucose,288 ± 77.9 mg/dL
Nc1cc2c3ccccc3ccc2c2ccccc12,adrenal haemorrhage prevention,rat,"oral, together with: 7,12-DMBA 5 mg i.v.",,minimal protective dose,1 mg
Cc1ccc(S(=O)(=O)NC(=O)NN2CC3CCCC3C2)cc1 (stereo not shown),,mice with STZ-induced diabetes,"oral, 25 mg/kg, 144 h, day 6",,blood glucose,200 ± 5.8 mg/dL
Bevacizumab,lung metastasis,"BGC-823, BALB/c NOD SCID mice, xenograft",dose not given,,inhibition,62.7%
Cc1cc(C(=O)/C(=C/c2cc(Br)cs2)c2cc(Br)cs2)c(C(=O)N2CCCCC2)c(=O)[nH]1,"cell proliferation, MTT","35404 melanoma brain metastasis, human patient-derived","72 h, tested up to 10 µM",,IC50,> 10 µM
CC(=O)N1CCC(NC(=O)NC23CC4CC(CC(C4)C2)C3)CC1,,"rat, LPS inflammatory pain","sc, 3 mg/kg",relative to: vehicle,mechanical withdrawal threshold increase,> 20%
CC(C)C[C@H](NC(=O)[C@H](CO)NC(=O)[C@H](CCCNC(=N)N)NC(=O)[C@H](CC(=O)O)NC(=O)[C@H](CCC(=O)O)NC(=O)[C@H](C)NC(=O)[C@@H]1CCCN1C(=O)[C@H](C)NC(=O)[C@H](CCC(=O)O)NC(=O)[C@@H]1CCCN1C(=O)[C@@H]1CCCN1)C(N)=O,HPLC-EC,"F344 rat, normal, striatum","intranasal, 300 µg, 5 days/week for 3 weeks",,HVA level,843 ± 63 ng/g
Cc1c(C)c2c(c(C)c1OCc1ccccc1)CCC(C)(C(=O)NN=C1C(=O)Nc3ccccc31)O2 (stereo not shown),seizure protection,male CF-1 mice,"intraperitoneal, 4 h, together with: pentylenetetrazole 60 mg/kg subcutaneous",,minimal effective dose,30 mg/kg
insulin,PET imaging,"CD IGS rat, gastrocnemius both sides","intravenous, 0.0041-0.0083 IU/kg, 20 to 60 min",,18F-FDG SUV slope,0.0018 ± 0.0018
AGEDPHGYFLPGQFA,cytokine expression suppression,"peptide, mouse peritoneal macrophages, C57BL/6 mice","1 h pretreatment, together with: LPS/IFN-γ 15 h",,optimal dose,1 pM
Cc1cc(C(=O)/C(=C\c2ccc(Br)cc2)c2ccc(Br)cc2)c(C(=O)N2CCCCC2)c(=O)[nH]1,"cell proliferation, MTT","35404 melanoma brain metastasis, human patient-derived","72 h, tested up to 10 µM",,IC50,> 10 µM
oxytocin-d5,,"rhesus monkey, CSF","intranasal, 80 IU, 0 to 60 min",relative to: intranasal saline,endogenous oxytocin level,no effect
[2H]C([2H])(NC(=O)c1cc(C(=O)NCc2ccc(F)c(C)c2)ncn1)c1ccc(C(=O)O)cc1,histology,"rat, MIA-induced osteoarthritis, knee MTP, LTP and LFC","intra-articular, 1 mg on 5, 12, 19 days after MIA, day 26",relative to: vehicle,proteoglycan loss reduction,15 to 19%
CCCC(CCC)C(=O)O,seizure protection,male CF-1 mice,"intraperitoneal, 4 h, together with: pentylenetetrazole 60 mg/kg subcutaneous",,minimal effective dose,200 mg/kg
O=C(NC[C@H]1CN(c2ccc(N3CCOCC3=O)cc2)C(=O)O1)c1ccc(Cl)s1,,"human, moderate renal impairment, plasma","oral, 10 mg, together with: erythromycin at steady state","relative to: same subjects, compound alone",prothrombin time AUC(0-48h) increase,~79%
CCCCCCCCCCCCCCCC(=O)NCCCC[C@H](NC(=O)[C@H](CCC(=O)O)NC(=O)[C@H](CCC(=O)O)NC(=O)[C@H](Cc1ccc(O)cc1)NC(=O)[C@H](CCC(=O)O)NC(=O)CCCCCNC(=S)Nc1ccc2c(c1)C(=O)OC21c2ccc(O)cc2Oc2cc(O)ccc21)C(=O)N[C@@H](Cc1ccc(O)cc1)C(=O)N[C@@H](CCC(=O)O)C(=O)NCC(=O)NCC(=O)NCC(=O)NCC(=O)N[C@@H](CO)C(=O)NCC(=O)NCC(=O)NCC(=O)NCC(=O)N[C@@H](CO)C(=O)N[C@@H](Cc1ccccc1)C(=O)N[C@@H](CC(N)=O)C(=O)N1CCC[C@H]1C(=O)N[C@@H](CCCNC(=N)N)C(=O)N[C@@H](Cc1c[nH]cn1)C(=O)NC(C)(C)C(=O)N[C@@H](CCC(=O)O)C(=O)NCC(=O)N[C@H](C(=O)N[C@@H](Cc1ccccc1)C(=O)N[C@H](C(=O)N[C@@H](CO)C(=O)N[C@@H](CC(=O)O)C(=O)N[C@H](C(=O)N[C@@H](CO)C(=O)N[C@@H](CO)C(=O)N[C@@H](Cc1ccc(O)cc1)C(=O)N[C@@H](CC(C)C)C(=O)N[C@@H](CCC(=O)O)C(=O)NCC(=O)N[C@@H](CCC(N)=O)C(=O)N[C@@H](C)C(=O)N[C@@H](C)C(=O)N[C@@H](CCCCN)C(=O)N[C@@H](CCC(=O)O)C(=O)N[C@@H](Cc1ccccc1)C(=O)N[C@H](C(=O)N[C@@H](C)C(=O)N[C@@H](Cc1c[nH]c2ccccc12)C(=O)N[C@@H](CC(C)C)C(=O)N[C@H](C(=O)N[C@@H](CCCCN)C(=O)NCC(=O)N[C@@H](CCCNC(=N)N)C(=O)NCC(=O)O)C(C)C)[C@@H](C)CC)C(C)C)[C@@H](C)O)[C@@H](C)O,,db/db mouse,"subcutaneous, 10, 30 and 90 nmol/kg twice weekly, 8 weeks",relative to: saline,HbA1c,decreased
Cc1cccc(N(O)N=Nc2ccc(S(=O)(=O)Nc3onc(C)c3C)cc2)c1,paw oedema,"rat, carrageenan oedema","oral, 100 mg/kg, 2 h after carrageenan",relative to: vehicle,inhibition,29.4%
COc1ccc2c(c1)CC[C@H](CN(C)CC(=O)O)[C@@H]2c1ccccc1,,"rat, prefrontal cortex microdialysate","oral gavage, 5 mg/kg/day, 2 weeks",,basal dopamine level,1.86 ± 1.54 pg/10 µL
O=S(=O)(Nc1nccs1)c1ccc(N=NN(O)c2ccccc2)cc1,paw oedema,"rat, carrageenan oedema","oral, 100 mg/kg, 4 h after carrageenan",relative to: vehicle,inhibition,79.7%
CCN1CCN(c2ccc(Nc3cc(N(C)C(=O)Nc4c(Cl)c(OC)cc(OC)c4Cl)ncn3)cc2)CC1,,FGFR1-amplified squamous NSCLC patients,≥100 mg,,patients with tumour reduction,40.7%
CNC(=O)c1cc(Oc2ccc(NC(=O)Nc3ccc(Cl)c(C(F)(F)F)c3)cc2)ccn1,nodule area,"nude mouse, intrahepatic MHCC97H","oral, 2 mg/kg every 2 days, 10 doses, 21 days, cells transfected",,inhibition,62.1 ± 6.58%
GLFHDQAGPPAGYEF,ELISA or Luminex,"peptide, mouse peritoneal macrophages, C57BL/6 mouse","optimal dose within 0.1 pM to 100 nM, 1 h pretreatment, 15 h stimulation, together with: LPS 100 ng/mL + IFN-γ 20 ng/mL",relative to: LPS/IFN-γ stimulated control,inhibition of RANTES release,0%
CCCN(O)N=Nc1ccc(S(=O)(=O)Nc2cc(C)on2)cc1,paw oedema,"rat, carrageenan oedema","oral, 100 mg/kg, 4 h after carrageenan",relative to: vehicle,inhibition,81.7%
CCc1c2ccccc2c(CC)c2c1ccc1ccccc12,adrenal haemorrhage prevention,rat,"oral, together with: 7,12-DMBA 5 mg i.v.",,minimal protective dose,1 mg
Cc1c(C)c2c(c(C)c1OCc1ccccc1)CCC(C)(C(=O)NN=C1C(=O)N(C)c3ccccc31)O2 (stereo not shown),seizure protection,male CF-1 mice,"intraperitoneal, 0.5 h, together with: pentylenetetrazole 60 mg/kg subcutaneous",,minimal effective dose,100 mg/kg
SIYNFEKL,"flow cytometry, measured: CD44hi CD8+ T cells","peptide, OT-I CD8+ T cells, mouse","dose not given, primed 5 days, TGF-β1 from day 2 onward, together with: 20 ng/mL TGF-β1",,IL-2+ IFN-γ+ cells,12.9%
O=C1CSC(NN=C2c3ccccc3-c3nc4cc(F)ccc4nc32)=N1,,mice with STZ-induced diabetes,"oral, 25 mg/kg, 216 h, day 9",,blood glucose,281 ± 27.5 mg/dL
CCCCCCOC(=O)N=C(N)c1ccc(NCc2nc3cc(C(=O)N(CCC(=O)OCC)c4ccccn4)ccc3n2C)cc1,,"human subjects, plasma","dose not given, together with: enoxaparin, dosed 24 h earlier",relative to: dabigatran alone,PiCT increase,~15%
